Experimental data gathered from unrelated publications.
Parts stem from different laboratories: compare values within a part only. Values joined by “and” are separate records of one study, mostly repeats; a detail may differ.

Block 1
Target: Cyclin-dependent kinase 12, with cyclin K (CDK12, Homo sapiens, UniProt Q9NYV4)
Chain of UniProt Q9NYV4 (whole entry, looked up): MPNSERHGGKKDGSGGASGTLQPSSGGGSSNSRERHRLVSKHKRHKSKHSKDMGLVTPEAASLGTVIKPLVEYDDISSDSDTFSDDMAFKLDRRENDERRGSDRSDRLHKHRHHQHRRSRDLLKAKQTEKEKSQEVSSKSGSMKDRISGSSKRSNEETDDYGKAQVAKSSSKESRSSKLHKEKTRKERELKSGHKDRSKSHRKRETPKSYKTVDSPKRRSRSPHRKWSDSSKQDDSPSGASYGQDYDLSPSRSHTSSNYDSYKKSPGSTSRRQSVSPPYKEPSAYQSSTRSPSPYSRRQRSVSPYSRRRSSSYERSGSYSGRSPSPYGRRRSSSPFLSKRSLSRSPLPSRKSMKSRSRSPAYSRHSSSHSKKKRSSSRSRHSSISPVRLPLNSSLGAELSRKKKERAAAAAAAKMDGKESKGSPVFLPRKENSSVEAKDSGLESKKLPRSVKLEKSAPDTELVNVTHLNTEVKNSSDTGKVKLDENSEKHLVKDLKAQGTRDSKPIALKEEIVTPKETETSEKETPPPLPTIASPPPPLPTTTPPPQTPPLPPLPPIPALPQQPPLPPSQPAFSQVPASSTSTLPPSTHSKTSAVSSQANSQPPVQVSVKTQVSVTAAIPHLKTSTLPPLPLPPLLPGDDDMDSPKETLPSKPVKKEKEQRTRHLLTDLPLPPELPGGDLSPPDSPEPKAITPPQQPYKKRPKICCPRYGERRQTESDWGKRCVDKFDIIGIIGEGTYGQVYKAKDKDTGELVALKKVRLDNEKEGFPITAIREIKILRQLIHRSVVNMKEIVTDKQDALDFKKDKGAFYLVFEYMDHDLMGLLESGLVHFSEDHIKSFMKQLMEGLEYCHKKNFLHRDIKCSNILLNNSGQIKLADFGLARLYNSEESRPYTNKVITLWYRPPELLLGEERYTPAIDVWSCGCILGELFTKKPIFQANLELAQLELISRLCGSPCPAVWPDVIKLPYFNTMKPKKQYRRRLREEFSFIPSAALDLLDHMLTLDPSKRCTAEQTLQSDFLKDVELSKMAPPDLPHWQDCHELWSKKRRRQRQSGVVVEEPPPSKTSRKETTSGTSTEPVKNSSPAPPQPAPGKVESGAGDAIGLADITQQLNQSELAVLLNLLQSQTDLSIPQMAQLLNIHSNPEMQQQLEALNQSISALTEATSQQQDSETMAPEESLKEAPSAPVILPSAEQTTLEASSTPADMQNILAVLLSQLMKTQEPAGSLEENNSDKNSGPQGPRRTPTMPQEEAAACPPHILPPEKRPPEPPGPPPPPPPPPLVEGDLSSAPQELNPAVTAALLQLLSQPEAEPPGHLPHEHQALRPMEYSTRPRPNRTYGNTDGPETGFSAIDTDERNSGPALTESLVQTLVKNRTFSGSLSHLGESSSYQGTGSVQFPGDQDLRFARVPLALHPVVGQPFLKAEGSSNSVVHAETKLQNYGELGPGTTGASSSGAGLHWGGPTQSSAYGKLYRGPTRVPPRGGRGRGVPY
Read-out: kinase activity
Mode: inhibitor
Technique: ADP-Glo
Tested at: 0.0009 µM
Endpoint: inhibition
Compound = CCn1cnc2c(NCc3nc4cc(Cl)c(Cl)cc4[nH]3)nc(N3CCN(C(C)=O)CC3)nc21; value = 6%
Compound = CCn1cnc2c(NCc3nc4ccc(F)c(F)c4[nH]3)nc(N3CCn4ncnc4C3)nc21; value = 12.6%
Compound = CC(=O)N1CCN(c2nc(NCc3nc4cc(Cl)c(Cl)cc4[nH]3)c3ncn(C(C)C)c3n2)CC1; value = 2.3%
Compound = CCn1cnc2c(NCc3nc4cc(F)c(F)cc4[nH]3)nc(N3CCn4ncnc4C3)nc21; value = 10.9%
Compound = CCn1cnc2c(NCc3nc4cc(Cl)c(Cl)cc4[nH]3)nc(N3CCN(S(C)(=O)=O)CC3)nc21; value = -5.5%
Compound = CCn1cnc2c(NCc3nc4cc(Cl)c(Cl)cc4[nH]3)nc(N3CCN(C(=O)c4ccncc4)CC3)nc21; value = 4%
Compound = CC(=O)N1CCN(c2nc(NCc3nc4cc(Cl)c(Cl)cc4[nH]3)c3ncn(C)c3n2)CC1; value = -5.3%
Compound = CCn1cnc2c(NCc3nc4cc(Cl)c(Cl)cc4[nH]3)nc(N3CCN(C(=O)c4ccccn4)CC3)nc21; value = -5.5%
Compound = CCn1cnc2c(NCc3nc4cc(Cl)c(Cl)cc4[nH]3)nc(N3CCN(c4ccccn4)CC3)nc21; value = 3.1%
Compound = Cn1cc(-n2cnc3c(NCc4nc5cc(Cl)c(Cl)cc5[nH]4)nc(N4CCNCC4)nc32)cn1; value = -6.4%

Block 2
Structure (SMILES): CCC1(c2cccc(-c3cn(C)nc3C)c2)C2=C(Nc3n[nH]cc31)C(F)C(C)(C)CC2=O (single isomer, unassigned)
Tested at: 1 µM
Endpoint: remaining binding
target = BRSK2 (Homo sapiens, UniProt Q8IWQ3); read-out = kinase binding; technique = KINOMEscan; reference = DMSO control; value = 100%
target = PRKACA (Homo sapiens, UniProt P17612); read-out = kinase binding; technique = KINOMEscan; reference = DMSO control; value = 100%
target = NEK5 (Homo sapiens, UniProt Q6P3R8); read-out = binding; technique = competition with immobilised ligand; value = 100%
target = BMP2K (Homo sapiens, UniProt Q9NSY1); read-out = binding; technique = competition with immobilised ligand; value = 75%
target = CDKL3 (Homo sapiens, UniProt Q8IVW4); read-out = binding; technique = competition with immobilised ligand; value = 100%
target = PAK1 (Homo sapiens, UniProt Q13153); read-out = binding; technique = competition with immobilised ligand; value = 100%
target = FLT3 (Homo sapiens, UniProt P36888, D835H); read-out = binding; technique = competition with immobilised ligand; value = 100%
target = PIK3CA (Homo sapiens, UniProt P42336, H1047Y); read-out = binding; technique = competition with immobilised ligand; value = 100%
target = Aurora kinase C (AURKC, Homo sapiens, UniProt Q9UQB9); read-out = kinase binding; technique = KINOMEscan; reference = DMSO control; value = 100%
target = MAP4K4 (Homo sapiens, UniProt O95819); read-out = kinase binding; technique = KINOMEscan; reference = DMSO control; value = 87%
target = VRK2 (Homo sapiens, UniProt Q86Y07); read-out = kinase binding; technique = KINOMEscan; reference = DMSO control; value = 100%
target = WNK1 (Homo sapiens, UniProt Q9H4A3); read-out = kinase binding; technique = KINOMEscan; reference = DMSO control; value = 100%
target = PRKACB (Homo sapiens, UniProt P22694); read-out = binding; technique = competition with immobilised ligand; value = 90%
target = AKT1 (Homo sapiens, UniProt P31749); read-out = binding; technique = competition with immobilised ligand; value = 100%
target = CAMK1G (Homo sapiens, UniProt Q96NX5); read-out = binding; technique = competition with immobilised ligand; value = 97%
target = PAK3 (Homo sapiens, UniProt O75914); read-out = kinase binding; technique = KINOMEscan; reference = DMSO control; value = 100%
target = PRKCH (Homo sapiens, UniProt P24723); read-out = kinase binding; technique = KINOMEscan; reference = DMSO control; value = 100%
target = Aurora kinase A (AURKA, Homo sapiens, UniProt O14965); read-out = binding; technique = competition with immobilised ligand; value = 100%
target = PRKCE (Homo sapiens, UniProt Q02156); read-out = binding; technique = competition with immobilised ligand; value = 100%
target = FLT3 (Homo sapiens, UniProt P36888, N841I); read-out = binding; technique = competition with immobilised ligand; value = 100%

Block 3
Compound: C[C@@H]1CN(c2ccc(-c3cc(C(=O)NCCOCCOCCOCCOCCOCCOCCNC(=O)/C=C/c4[nH]cc(C(=O)N[C@@H](CC(N)=O)c5ccc(F)c(Cl)c5)c4-c4ccc(Cl)cc4F)ccc3F)cc2NC(=O)c2ccc(F)cc2C(F)(F)F)C[C@H](C)N1C
Read-out: thermal unfolding
Technique: differential scanning fluorimetry
Tested at: 5.5 µM
Reading: higher = more unfolded
Endpoint: SYPRO Orange fluorescence
WDR5: WD repeat-containing protein 5 (WDR5, Homo sapiens, UniProt P61964)
DCAF1: DDB1- and CUL4-associated factor 1 (DCAF1, Homo sapiens, UniProt Q9Y4B6)
Chain of UniProt Q9Y4B6 (whole entry, looked up): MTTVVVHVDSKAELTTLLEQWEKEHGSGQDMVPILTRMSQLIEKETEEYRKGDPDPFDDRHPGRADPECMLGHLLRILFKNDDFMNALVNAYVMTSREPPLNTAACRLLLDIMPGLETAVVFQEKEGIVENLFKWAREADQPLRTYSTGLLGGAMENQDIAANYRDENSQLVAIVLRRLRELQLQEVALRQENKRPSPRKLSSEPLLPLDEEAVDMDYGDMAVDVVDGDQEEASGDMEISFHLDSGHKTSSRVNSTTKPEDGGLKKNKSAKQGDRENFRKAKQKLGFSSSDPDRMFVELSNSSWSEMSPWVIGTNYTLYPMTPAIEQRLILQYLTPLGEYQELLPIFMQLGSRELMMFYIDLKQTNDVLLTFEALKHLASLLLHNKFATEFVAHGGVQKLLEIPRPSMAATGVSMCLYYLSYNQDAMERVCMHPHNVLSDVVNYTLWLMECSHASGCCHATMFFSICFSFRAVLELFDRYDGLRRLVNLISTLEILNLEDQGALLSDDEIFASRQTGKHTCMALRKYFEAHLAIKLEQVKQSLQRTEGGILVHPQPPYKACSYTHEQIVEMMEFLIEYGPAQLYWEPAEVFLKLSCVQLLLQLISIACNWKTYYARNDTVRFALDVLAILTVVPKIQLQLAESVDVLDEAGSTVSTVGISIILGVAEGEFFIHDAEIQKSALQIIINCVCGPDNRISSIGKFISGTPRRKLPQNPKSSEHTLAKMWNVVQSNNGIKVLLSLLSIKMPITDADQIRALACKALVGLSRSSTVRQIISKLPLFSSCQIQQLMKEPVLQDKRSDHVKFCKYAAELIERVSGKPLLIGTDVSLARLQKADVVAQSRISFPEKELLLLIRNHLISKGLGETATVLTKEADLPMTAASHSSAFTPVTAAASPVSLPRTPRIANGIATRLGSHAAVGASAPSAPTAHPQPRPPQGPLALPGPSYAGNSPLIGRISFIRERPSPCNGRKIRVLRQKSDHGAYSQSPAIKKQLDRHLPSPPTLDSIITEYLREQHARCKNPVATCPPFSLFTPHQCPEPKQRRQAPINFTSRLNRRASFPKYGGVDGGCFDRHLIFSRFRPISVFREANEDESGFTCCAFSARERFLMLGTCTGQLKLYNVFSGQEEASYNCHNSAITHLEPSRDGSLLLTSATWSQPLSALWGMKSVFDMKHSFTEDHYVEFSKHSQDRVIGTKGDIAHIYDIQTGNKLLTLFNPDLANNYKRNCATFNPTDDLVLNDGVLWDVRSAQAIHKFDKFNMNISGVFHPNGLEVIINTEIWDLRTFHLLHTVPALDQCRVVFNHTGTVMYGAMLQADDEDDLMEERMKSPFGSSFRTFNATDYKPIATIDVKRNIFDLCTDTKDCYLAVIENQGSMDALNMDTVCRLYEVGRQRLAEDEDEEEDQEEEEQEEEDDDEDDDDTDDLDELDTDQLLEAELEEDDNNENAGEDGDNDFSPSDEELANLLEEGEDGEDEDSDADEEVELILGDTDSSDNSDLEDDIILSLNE
target = WDR5; temperature = 78.21 °C; value = 60900 a.u.
target = WDR5; temperature = 27.4 °C; value = 13400 a.u.
target = DCAF1; temperature = 45.8 °C; value = 14800 a.u.
target = DCAF1; temperature = 64.81 °C; value = 53700 a.u.
target = WDR5; temperature = 64.01 °C; value = 15600 a.u.
target = WDR5; temperature = 70.81 °C; value = 30400 a.u.
target = DCAF1; temperature = 92.81 °C; value = 30200 a.u.
target = DCAF1; temperature = 51.2 °C; value = 19300 a.u.
target = WDR5; temperature = 79.61 °C; value = 64100 a.u.
target = DCAF1; temperature = 49.6 °C; value = 17800 a.u.
target = WDR5; temperature = 82.81 °C; value = 65100 a.u.

Block 4
Structure (SMILES): COc1cc(C(=O)OCCCN2CCCN(CCCOC(=O)c3cc(OC)c(OC)c(OCc4ccc([N+](=O)[O-])cc4)c3)CC2)cc(OC)c1OC
Technique: von Frey test
Endpoint: paw withdrawal threshold
species = mouse, CFA inflammatory pain; route = intraplantar; dose = 10 µg; time = 24 h post-dose; setting = day 3 after CFA; value = 0.44 g and 0.23 g and 0.32 g
read-out = mechanical pain; species = mouse, STZ diabetic neuropathy; route = intravenous; dose = 30 mg/kg; time = 24 h post-dose; setting = first injection, day 8; value = 0.19 g and 0.27 g and 0.08 g and 0.13 g and 0.06 g
species = mouse, CFA inflammatory pain; route = subcutaneous; dose = 10 mg/kg; time = 3 h post-dose; setting = third injection, day 5; value = 0.65 g and 0.51 g and 0.29 g and 0.4 g
read-out = mechanical pain; species = mouse, STZ diabetic neuropathy; route = intravenous; dose = 30 mg/kg; time = 5 h post-dose; setting = third injection; value = 0.32 g and 0.44 g and 0.51 g
read-out = mechanical pain; species = mouse, STZ diabetic neuropathy; route = intravenous; dose = 30 mg/kg; time = 24 h post-dose; setting = third injection; value = 0.4 g and 0.44 g and 0.36 g
read-out = mechanical pain; species = mouse, STZ diabetic neuropathy; route = intravenous; dose = 30 mg/kg; time = 1 h post-dose; setting = third injection; value = 0.51 g and 0.98 g and 0.22 g
species = mouse, CFA inflammatory pain; route = intravenous; dose = dose not given; time = 5 h post-dose; setting = first injection, day 1; value = 0.23 g and 0.44 g and 0.32 g and 0.36 g and 0.51 g
read-out = mechanical pain; species = mouse, STZ diabetic neuropathy; route = intravenous; dose = 30 mg/kg; time = 3 h post-dose; setting = third injection; value = 0.36 g and 0.65 g and 0.98 g and 0.59 g

Block 5
Compound: NC/C(=C\F)COc1cc(Cl)cc(-c2cc(=O)[nH]c(=S)n2CC(N)=O)c1
Target: Myeloperoxidase (MPO, Homo sapiens, UniProt P05164)
Chain of UniProt P05164 (whole entry, looked up): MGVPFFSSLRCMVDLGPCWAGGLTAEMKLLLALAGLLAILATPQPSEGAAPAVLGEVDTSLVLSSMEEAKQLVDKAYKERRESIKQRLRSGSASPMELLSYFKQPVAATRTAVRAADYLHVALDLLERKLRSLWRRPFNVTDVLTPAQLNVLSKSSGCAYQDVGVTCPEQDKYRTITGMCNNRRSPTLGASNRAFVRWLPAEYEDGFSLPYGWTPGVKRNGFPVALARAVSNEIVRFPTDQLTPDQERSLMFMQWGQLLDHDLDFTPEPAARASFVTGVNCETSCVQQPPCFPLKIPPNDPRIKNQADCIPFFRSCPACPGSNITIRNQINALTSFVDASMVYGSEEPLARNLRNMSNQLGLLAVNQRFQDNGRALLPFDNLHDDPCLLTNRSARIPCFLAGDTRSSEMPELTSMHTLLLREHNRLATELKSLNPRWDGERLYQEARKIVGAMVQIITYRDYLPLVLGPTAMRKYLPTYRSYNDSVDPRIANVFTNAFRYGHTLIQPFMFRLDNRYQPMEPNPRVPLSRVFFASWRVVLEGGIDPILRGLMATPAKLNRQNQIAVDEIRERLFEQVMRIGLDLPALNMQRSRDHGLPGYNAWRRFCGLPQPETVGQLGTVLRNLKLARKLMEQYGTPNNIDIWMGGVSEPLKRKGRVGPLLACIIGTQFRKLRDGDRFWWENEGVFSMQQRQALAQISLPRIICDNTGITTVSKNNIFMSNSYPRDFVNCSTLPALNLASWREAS
Read-out: enzyme activity
Mode: inhibitor
Technique: fluorescence
Endpoint: inhibition
tested at = 61.7 nM; value = 5.48% and 13.7%
tested at = 1.5 nM; value = 2.4%
tested at = 500 pM; value = -7.87%
tested at = 800 pM; value = -3.61% and -11.3%
tested at = 41.2 nM; value = 14.6%
tested at = 3.333 µM; value = 88%
tested at = 1.111 µM; value = 81.1%

Block 6
SMILES: CCN1/C(=C/C=C2\CCCC(/C=C/C3=[N+](CC)c4ccccc4C3(C)C)=C2NCCCCCCCCN2CCC(Nc3nc4ccccc4n3Cc3ccc(F)cc3)CC2)C(C)(C)c2ccccc21
Cell line: U-87 MG
Tested at: concentration not given
Reference: DMSO
Endpoint: log2 fold change
item = ANK1 mRNA; value = -2.74
item = EIF1 mRNA; value = 0.913
item = ETS1 mRNA; value = 1.11
item = SYTL3 mRNA; value = 1.47
item = ARHGAP11A mRNA; value = -2.08
item = ZBTB43 mRNA; value = 0.884
item = DYNC2I2 mRNA; value = -1.3
item = ARSI mRNA; value = -2.84
item = NAMPT mRNA; value = 1.78
item = IL1A mRNA; value = 3.15
item = PNRC1 mRNA; value = 2.47
item = U2AF1 mRNA; value = -2.93
item = DENND5B mRNA; value = 1
item = PSG5 mRNA; value = -2.57
item = TGFB2 mRNA; value = -1.83
item = PHF19 mRNA; value = -1.62

Mixed results
PKMYT1: Membrane-associated tyrosine- and threonine-specific cdc2-inhibitory kinase (PKMYT1, Homo sapiens, UniProt Q99640)
Chain of UniProt Q99640 (whole entry, looked up): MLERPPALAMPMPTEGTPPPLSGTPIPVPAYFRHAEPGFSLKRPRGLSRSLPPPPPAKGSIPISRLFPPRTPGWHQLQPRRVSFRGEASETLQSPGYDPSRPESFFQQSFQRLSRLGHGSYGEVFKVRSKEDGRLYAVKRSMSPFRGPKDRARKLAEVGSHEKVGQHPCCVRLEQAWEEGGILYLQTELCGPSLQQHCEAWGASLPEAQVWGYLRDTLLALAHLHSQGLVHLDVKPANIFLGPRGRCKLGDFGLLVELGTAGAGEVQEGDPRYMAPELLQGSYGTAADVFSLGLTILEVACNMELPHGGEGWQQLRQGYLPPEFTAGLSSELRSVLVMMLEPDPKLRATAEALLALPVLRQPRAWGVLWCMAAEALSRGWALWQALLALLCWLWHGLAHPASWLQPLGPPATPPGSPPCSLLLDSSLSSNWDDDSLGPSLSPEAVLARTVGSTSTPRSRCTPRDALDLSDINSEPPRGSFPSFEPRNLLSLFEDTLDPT
SLC6A19: Sodium-dependent neutral amino acid transporter B(0)AT1 (SLC6A19, Homo sapiens, UniProt Q695T7)
Chain of UniProt Q695T7 (whole entry, looked up): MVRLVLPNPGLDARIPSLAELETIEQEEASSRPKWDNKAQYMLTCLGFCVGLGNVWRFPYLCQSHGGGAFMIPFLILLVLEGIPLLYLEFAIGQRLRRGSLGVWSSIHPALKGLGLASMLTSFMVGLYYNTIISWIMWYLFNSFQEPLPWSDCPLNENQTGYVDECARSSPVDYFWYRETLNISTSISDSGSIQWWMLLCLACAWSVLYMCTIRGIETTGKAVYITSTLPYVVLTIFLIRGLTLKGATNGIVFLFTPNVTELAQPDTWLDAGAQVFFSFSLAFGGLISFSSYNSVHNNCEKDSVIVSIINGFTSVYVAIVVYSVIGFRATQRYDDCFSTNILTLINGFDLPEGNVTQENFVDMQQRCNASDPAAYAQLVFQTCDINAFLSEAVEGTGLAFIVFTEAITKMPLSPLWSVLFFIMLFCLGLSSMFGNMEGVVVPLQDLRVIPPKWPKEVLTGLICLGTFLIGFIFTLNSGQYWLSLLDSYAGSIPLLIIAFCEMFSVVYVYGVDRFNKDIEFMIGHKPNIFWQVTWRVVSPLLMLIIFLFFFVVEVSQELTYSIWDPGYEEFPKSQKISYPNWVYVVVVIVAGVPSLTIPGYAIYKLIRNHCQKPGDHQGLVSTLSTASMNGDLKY
KRAS G12D GDP-bound: GTPase KRas, GDP-bound (KRAS, Homo sapiens, UniProt P01116, G12D)
SMILES = Cc1ccc(O)c(C)c1-c1cnc2[nH]c(-c3cnc(N4CCC5(CC4)CC(N4CCN(c6cc7c(cc6F)c(N6CCC(=O)NC6=O)nn7C)CC4)CO5)nc3)cc2c1C#N (racemic); tested on = PKMYT1; assay = binding, HTRF; conditions = 1.37 nM; endpoint = inhibition; value = 15.8% and 16.2%
SMILES = CNC(=O)COc1cc(C)c(Cl)c(C)c1; tested on = SLC6A19; assay = FLIPR membrane potential; system = CHO-BC; conditions = concentration not given, unit not given; how to read = reference: fraction of control; endpoint = remaining activity; value = 0.561
SMILES = Cc1ccc(O)c(C)c1-c1cnc2[nH]c(-c3cnc(N4CCC(CCN5CCN(c6ccc7c(c6)C(=O)N(C6CCC(=O)NC6=O)C7=O)CC5)CC4)nc3)cc2c1C#N (racemic); tested on = PKMYT1; assay = binding, HTRF; conditions = 0.15 nM; endpoint = inhibition; value = 4.88% and 5.04%
SMILES = Cc1ncsc1-c1ccc(C2(NC(=O)C3CC(O)CN3C(=O)C(NC(=O)c3ccc(COc4c(-c5c(C)c(F)cc6[nH]ncc56)c(C5CC5)cc5c(N6CC7CC6CN7)nc(OC6CCOCC6)nc45)cc3)C(C)C)CC2)cc1 (centres unmarked); tested on = KRAS G12D GDP-bound; assay = SPR, multi-cycle; system = immobilized KRAS G12D; conditions = binary, geometric mean; endpoint = koff; value = 0.00819 s⁻¹
SMILES = Cc1ccc(O)c(C)c1-c1cnc2[nH]c(-c3cnc(N)nc3)cc2c1C#N; tested on = PKMYT1; assay = target engagement, NanoBRET; conditions = 37.04 nM; endpoint = NanoBRET signal; value = 18.9 mBU and 20.4 mBU
SMILES = CCN1CCN(Cc2ccc(COc3c(-c4c(C)c(F)cc5[nH]ncc45)c(C4CC4)cc4c(N5C[C@@H]6C[C@H]5CN6)nc(OC5CCOCC5)nc34)cc2)C(=O)C1; tested on = AsPC-1 KRAS G12D; assay = ERK1/2 phosphorylation, inhibitor, In-Cell ELISA; conditions = 24 h, geometric mean of experiments; endpoint = IC50; value = 0.846 µM
SMILES = CC(C)NC(=O)COc1ccc2ccccc2c1; tested on = SLC6A19; assay = FLIPR membrane potential; system = CHO-BC; conditions = concentration not given; how to read = reference: background subtracted; endpoint = remaining activity; value = 1.17%
SMILES = Cc1ncsc1-c1ccc(C(CO)NC(=O)C2CC(O)CN2C(=O)C(NC(=O)c2ccc(COc3c(-c4c(C)c(F)cc5[nH]ncc45)c(C4CC4)cc4c(N5CC6CC5CN6)nc(OC5CCOCC5)nc34)cc2)C(C)C)cc1 (centres unmarked); tested on = KRAS G12D GDP-bound; assay = SPR, single-cycle; system = immobilized KRAS G12D; conditions = binary, geometric mean; endpoint = koff; value = 0.00794 s⁻¹
SMILES = Cc1ccc(O)c(C)c1-c1cnc2[nH]c(-c3cnc(N4CCC5(CC4)CC(CN4CCN(c6ccc(NC7CCC(=O)NC7=O)cc6F)CC4)C5)nc3)cc2c1C#N (centres unmarked); assay = ultracentrifugation; system = mouse plasma; conditions = 2 µM, 4 h, pH 7.4; endpoint = fraction unbound; value = 0.026
SMILES = CCNC(=O)COc1cc(C)c(Cl)c(C)c1; tested on = SLC6A19; assay = FLIPR membrane potential; system = CHO-BC; conditions = concentration not given; how to read = reference: 100 µM cinromide set to 0; endpoint = remaining activity; value = 6.24%
SMILES = Cc1ncsc1-c1ccc(C2(NC(=O)C3CC(O)CN3C(=O)C(NC(=O)c3ccc(COc4c(-c5c(C)c(F)cc6[nH]ncc56)c(C5CC5)cc5c(N6CC7CC6CN7)nc(OC6CCOCC6)nc45)cc3)C(C)(C)C)CC2)cc1 (centres unmarked); tested on = KRAS G12D GDP-bound; assay = SPR, multi-cycle; system = immobilized KRAS G12D; conditions = binary, geometric mean; endpoint = koff; value = 0.00692 s⁻¹

For quick reference, copied from above (block 6):
item = EIF1 mRNA; value = 0.913
item = ETS1 mRNA; value = 1.11
item = SYTL3 mRNA; value = 1.47
item = ARHGAP11A mRNA; value = -2.08
item = ZBTB43 mRNA; value = 0.884
item = DYNC2I2 mRNA; value = -1.3
item = ARSI mRNA; value = -2.84
item = NAMPT mRNA; value = 1.78
item = IL1A mRNA; value = 3.15
item = PNRC1 mRNA; value = 2.47
item = U2AF1 mRNA; value = -2.93
item = DENND5B mRNA; value = 1
